Published values of several laboratories.
Protocols differ between the studies behind these lines. Values joined by “and” are separate records of one study, mostly repeats; a detail may differ.
Target: 5-hydroxytryptamine receptor 3A (HTR3A, Homo sapiens, UniProt P46098)

CCOC(=O)[C@](CC)(CCCSCCOCCOCCNC(=O)c1ccc(-c2c3ccc(=N)c(S(=O)(=O)O)c-3oc3c(S(=O)(=O)O)c(N)ccc23)c(C(=O)O)c1)NC(=O)c1ccc(C2CC2)c(Cc2ccc(F)cc2)n1 has an inhibition of 6% (ligand displacement, radioligand; 10 µM).
C[C@H](NCc1ccc(-c2ccc(C(F)(F)F)cc2)cc1)C(N)=O has an inhibition of 11% (radioligand binding, SafetyScreen panel; 1 µM, together with: 0.69 nM [3H]GR-65630).
C/C(=N\OCCCN1CCCCC1)c1ccc(C(F)(F)F)cc1 has an activation of 0.11% (calcium influx, agonist, FLIPR; 10 µM).
The inhibition of CN[C@@H]1[C@H](O)[C@H](NC)[C@H]2O[C@]3(O)[C@H](O[C@@H]2[C@H]1O)O[C@H](C)C[C@H]3NC(=O)Cc1cc(Cl)ccn1 is reported as -15% (ligand displacement, radioligand; 10 µM).
With CCN(CC)CCOc1ccc(-c2nnn(Cc3ccc(OC)cc3)c2N)cc1 the inhibition was 10.9% (radioligand binding; HEK293; 10 µM, safety profiling).
For Cc1sc2c(c1C)C(c1ccc(Cl)cc1)=NC(CC(=O)OC(C)(C)C)c1nnc(C)n1-2 (stereo not shown), the inhibition was -6% (ligand displacement, radioligand; 1 µM).
CCc1nnc(-c2c(OC)cc(-c3cnc4cc(-c5cnn(C)c5)ccn34)cc2OC)o1 gave a remaining binding of 114% (antagonist radioligand, radioligand binding; 10 µM, SafetyScreen44 5-HT3 mean; lower = stronger displacement).
The specific binding of O=C(O)c1ccc(-c2nc(-c3ccccc3Cl)c3sccn23)cc1 is reported as 96.4% and 98.3% (radioligand binding, safety screen panel; 10 µM; reference: control).
The inhibition of O=C1c2ccccc2CCCN1CCCCN1CCN(c2cccc(Cl)c2Cl)CC1 is reported as 95.7% (radioligand binding; concentration not given, together with: [3H]GR65630).
With COc1ccc(F)cc1S(=O)(=O)Nc1cnc2c(c1)C(=O)NCCO2 the inhibition was 5% (ligand displacement, radioligand; 10 µM).
For CS(C)(=O)=Nc1ccc(-c2ccc(-c3nc4cc(O[C@@H]5CO[C@H]6[C@@H]5OC[C@H]6O)[nH]c4cc3F)cc2)cc1, the inhibition was 1% (ligand displacement, radioligand; 10 µM).
COc1ccccc1N1CCN(CCCCN2CCCc3ccccc3C2=O)CC1 gave an inhibition of 18.2% (radioligand binding; concentration not given, together with: [3H]GR65630).
With N[C@H](C(=O)N1CCCC1)C1CCN(c2nccc3c(-c4ncc(Cl)cc4Cl)cccc23)CC1 the inhibition was -3% (ligand displacement, radioligand; 10 µM).

Some of these lines once more:
C/C(=N\OCCCN1CCCCC1)c1ccc(C(F)(F)F)cc1 has an activation of 0.11% (calcium influx, agonist, FLIPR; 10 µM).
